Assay results pooled from the literature.
Each numbered part is a random draw from the data of one study; scales do not carry over between parts.

Series 1 — technique: protein binding microarray; form: double-stranded DNA, one strand shown; medium: in vitro; tested at: not given; reference: not given; reading: higher = stronger binding
Target: Histone acetyltransferase KAT6A, winged helix 2, GST fusion (KAT6A, Homo sapiens, UniProt Q92794, residues 85-181)
Setting: 8-mer, flanks averaged, mean of 2 arrays, mostly near background
Construct (chain): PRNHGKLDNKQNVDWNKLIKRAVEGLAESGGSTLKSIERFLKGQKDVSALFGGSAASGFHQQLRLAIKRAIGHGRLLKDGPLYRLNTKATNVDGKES
With `TCTAGCCA` the E-score was -0.148.
For `AACGGGCG`, the E-score was 0.1.
The E-score of `CGACACCC` is reported as 0.0698.
With `AAGAGGTA` the E-score was -0.0166.
For `AAAACATC`, the E-score was -0.0827.
`CAACGTAA` gave an E-score of -0.224.
The E-score of `CCCATCGC` is reported as 0.11.
`CACCCAAC` gave an E-score of -0.0859.
`AAAGCCTC` gave an E-score of 0.00509.
`AGTGAGTA` gave an E-score of 0.0972.
The E-score of `GTTCGGTA` is reported as 0.0162.
`GCGGAGGA` has an E-score of -0.0449.
`ATTCCGTA` has an E-score of -0.0276.
`CTTAGGCC` has an E-score of -0.0199.
`CATTGCCC` gave an E-score of -0.0767.
With `ACGAATAT` the E-score was 0.0707.
`CGAGTTGA` has an E-score of 0.0707.
For `AGCTGGTA`, the E-score was -0.124.
`ATGAAGTG` gave an E-score of -0.164.
With `AGTGACCA` the E-score was -0.064.
`AGGGTTAC` has an E-score of -0.0684.
The E-score of `GGTGGCAA` is reported as 0.0136.
`AACGGCGG` has an E-score of 0.0365.
`CAAGTACA` has an E-score of -0.145.
For `ATGCAGTG`, the E-score was 0.0975.

Series 2 — technique: universal PBM; form: double-stranded DNA, one strand shown; medium: in vitro; tested at: not given; reading: higher = stronger binding
Target: Sal-like protein 4, full length isoform B (SALL4, Homo sapiens, UniProt Q9UJQ4-2, residues 1-616)
Setting: 8-mer, flanks averaged, mean of replicates
Target sequence (chain): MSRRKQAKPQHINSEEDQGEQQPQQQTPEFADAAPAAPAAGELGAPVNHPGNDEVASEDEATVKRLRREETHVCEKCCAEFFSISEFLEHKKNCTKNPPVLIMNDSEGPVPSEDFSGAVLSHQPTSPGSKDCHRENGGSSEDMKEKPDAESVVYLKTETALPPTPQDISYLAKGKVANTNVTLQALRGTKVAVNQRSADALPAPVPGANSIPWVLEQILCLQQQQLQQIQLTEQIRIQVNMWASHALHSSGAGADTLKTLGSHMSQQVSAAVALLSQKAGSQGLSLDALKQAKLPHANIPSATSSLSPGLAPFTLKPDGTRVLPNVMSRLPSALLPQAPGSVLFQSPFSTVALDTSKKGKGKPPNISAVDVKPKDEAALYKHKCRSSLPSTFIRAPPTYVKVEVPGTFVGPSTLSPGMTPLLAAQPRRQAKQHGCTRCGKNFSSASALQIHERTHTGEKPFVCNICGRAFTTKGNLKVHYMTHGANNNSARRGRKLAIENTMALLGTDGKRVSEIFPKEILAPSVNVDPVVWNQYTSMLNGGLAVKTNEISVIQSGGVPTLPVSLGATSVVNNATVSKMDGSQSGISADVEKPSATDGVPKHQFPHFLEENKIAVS
For `AGGAAATG`, the E-score was 0.0422.
For `CCCTCGAA`, the E-score was -0.0721.
For `CGTTGGTC`, the E-score was -0.18.
For `GCATTCGC`, the E-score was -0.0676.
`ATGCTAGG` has an E-score of 0.00638.
The E-score of `AAATGTCC` is reported as 0.0961.
For `GAACGTAC`, the E-score was -0.0682.
`CGTCCTGC` has an E-score of -0.2.
For `AAGATTAA`, the E-score was 0.287.
`GATTGTAC` gave an E-score of -0.027.
`ACACACGC` has an E-score of 0.114.
`AATTGAGT` gave an E-score of 0.101.
`AAGTTGTG` gave an E-score of 0.129.
`AACTATGA` has an E-score of 0.248.
`GGCCAGTA` gave an E-score of -0.138.
For `CTTCATCA`, the E-score was 0.122.
With `CATAGCGG` the E-score was -0.128.
`GTTTCGAA` has an E-score of 0.0365.
`ATGTCAAA` has an E-score of 0.269.
With `AGGGATGA` the E-score was -0.0287.
With `ACTACTGA` the E-score was -0.0534.
`GAACCCAC` has an E-score of -0.236.

Series 3 — technique: RNA Bind-n-Seq; form: RNA; medium: in vitro; tested at: 365 nM; reference: no-protein control; reading: higher = stronger binding
Target: RNA binding protein fox-1 homolog 2, RRM domain, GST-SBP tag (RBFOX2, Homo sapiens, UniProt O43251-10, residues 100-194)
Setting: natural RNA segment, single round, ends assumed
Residues (chain): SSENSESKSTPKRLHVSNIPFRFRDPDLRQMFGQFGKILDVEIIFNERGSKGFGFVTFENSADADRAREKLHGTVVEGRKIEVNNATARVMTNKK
For `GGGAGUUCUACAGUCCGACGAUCUGAAUAUGUUUUAUAUGUUAUGAAGAAAAGAAUUGUUGUAAGUUUUUGAUUCUACUCUUAUAUGCUGGACUGCAUUCACACAUGGCAUGAAAUAAGUCAGGUUCUUUACAUGGAAUUCUCGGGUGCCAA`, “RBNS enrichment (R)” read 1.33.
`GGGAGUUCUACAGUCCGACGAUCCCUCCUUAGCUCUCCUUGUCUUUGCUGUUGGUUGGUUAUUUCCUGCUUUGUGUCUGUUCUGAGCUGUGAGAUUCCACUGUGAAAUAUAUGAAUAAAGUAUAUAAUUCUUUUGGAAUUCUCGGGUGCCAA` — result for “RBNS enrichment (R)”: 1.57.
For `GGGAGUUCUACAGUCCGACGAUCUCUUCAUCGGUUGGAUUGGAUGCUUACAGGGUUUUUCUUGUAACAUUUAUAAGUGCUGCUUACAUCACUGAACAACAACAAAAAAAUAAUAAUGGAGUAGCUGUUGCCCUUGGAAUUCUCGGGUGCCAA`, “RBNS enrichment (R)” read 0.289.
`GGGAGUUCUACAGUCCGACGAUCAUUUCAUCCUGAUGUUUAGGGGACUUGUCCUGGUUCAUCUUAGUUAAUGUGUUCUUUGCCAAGGUGAUCUAAGUUGCCUACCUUGAAUUUUUUUUUAAAUAUAUUUGAUGUGGAAUUCUCGGGUGCCAA` — result for “RBNS enrichment (R)”: 0.387.
For `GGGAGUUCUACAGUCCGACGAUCUACGGGGAUUUACAUAGAUUACAGUGGCCAAGACCCCUUUCUCAAUGAAGGAUCUCAUUGGACGUCCUGUCAAUCAUUAAUCUACAUGCAGGCUUGUUCCCACACUACCUUGGAAUUCUCGGGUGCCAA`, “RBNS enrichment (R)” read 0.379.
`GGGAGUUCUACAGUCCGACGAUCAAAAGUAUAUGCAGGAUUAAUUUUACAUAAAGGCCUCUUCUGUAACAUUUCUCUAUUUUUUGAAAUACAAUUGCAAUAACUUCAGUCUUUUUACAUUCUUCUGCUGCAUCUGGAAUUCUCGGGUGCCAA`: “RBNS enrichment (R)” 1.2.
`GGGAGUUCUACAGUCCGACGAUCUCUCUUAACAGUUAAACAAGCUGUUUACAGUUUAAACUGCUGAAUAUUAUUUGAGCUAUUUAAAGCUUAUUAUAUUUUAGUAUGAACUAAAUGAAGGUUAAAACAUGCUUUGGAAUUCUCGGGUGCCAA` — result for “RBNS enrichment (R)”: 0.379.
For `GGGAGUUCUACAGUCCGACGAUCUUUUUUUAAUCUUCCUCUGUUAGCCCACAGGACAUGUUUUGGGGAAAAUGAUACUUGUAAAUCUUCUAUUUAACCAUUUGUAAAAUCUAAAUCAUACCCCACUCCCCACUUGGAAUUCUCGGGUGCCAA`, “RBNS enrichment (R)” read 0.48.

Series 4 — technique: aptamer microarray, sandwich; form: DNA with 2'F-ANA; medium: in vitro; tested at: 200 nM; with: Cy3 exosite-II aptamer, 400 nM; reading: higher = stronger binding; oligonucleotide: GGTTGGTGTGGTTGG
Target: Prothrombin, mature alpha-thrombin (F2, Homo sapiens, UniProt P00734)
Setting: whole 15-mer aptamer, many near background
`2'F-ANA at 1 2 4 6 7 9 13 15` — result for “mean fluorescence intensity”: 174 a.u.
Under “mean fluorescence intensity”, `2'F-ANA at 2 3 5 7 10 14` is recorded as 46 a.u.
`2'F-ANA at 1 3 4 5 6 8 9 10 11 13 14`: “mean fluorescence intensity” 65.9 a.u.
Under “mean fluorescence intensity”, `2'F-ANA at 2 3 8 14 15` is recorded as 424 a.u.
For `2'F-ANA at 2 6 8 12 13`, “mean fluorescence intensity” read 445 a.u.
`2'F-ANA at 2 7 8 9 10 12 13`: “mean fluorescence intensity” 175 a.u.
`2'F-ANA at 1 2 3 4 5 10 14 15` — result for “mean fluorescence intensity”: 49.3 a.u.
Under “mean fluorescence intensity”, `2'F-ANA at 4 11 13 14 15` is recorded as 76.7 a.u.
For `2'F-ANA at 5 6 7 9 11 12`, “mean fluorescence intensity” read 125 a.u.
For `2'F-ANA at 1 2 3 5 6 8 9 10 13 14 15`, “mean fluorescence intensity” read 61.2 a.u.
`2'F-ANA at 1 3 7 8 9 10 13 14 15` — result for “mean fluorescence intensity”: 60.1 a.u.
Under “mean fluorescence intensity”, `2'F-ANA at 4 7 9 10 13` is recorded as 75.5 a.u.
For `2'F-ANA at 2 5 6 7 9 13`, “mean fluorescence intensity” read 127 a.u.
`2'F-ANA at 5 7 10 12 13 14 15` — result for “mean fluorescence intensity”: 42.9 a.u.
`2'F-ANA at 3 4 8 10 12 13 15` — result for “mean fluorescence intensity”: 281 a.u.
`2'F-ANA at 1 3 5 6 7 8 9 10 13`: “mean fluorescence intensity” 54.7 a.u.
`2'F-ANA at 4 5 6 7 8 10`: “mean fluorescence intensity” 48.3 a.u.
For `2'F-ANA at 1 2 3 4 6 11 13 15`, “mean fluorescence intensity” read 100 a.u.
`2'F-ANA at 1 4 6 7 8 9 12 13 14`: “mean fluorescence intensity” 59.2 a.u.
`2'F-ANA at 1 3 9 11 12 14 15`: “mean fluorescence intensity” 102 a.u.
Under “mean fluorescence intensity”, `2'F-ANA at 2 5 7 8 9 11 12 13 15` is recorded as 90.7 a.u.
For `2'F-ANA at 1 2 5 6 9 10 12 14 15`, “mean fluorescence intensity” read 46 a.u.
For `2'F-ANA at 1 3 4 8 9 10 11 12 14 15`, “mean fluorescence intensity” read 52.7 a.u.
For `2'F-ANA at 1 2 6 7 9 10 15`, “mean fluorescence intensity” read 50.8 a.u.
Under “mean fluorescence intensity”, `2'F-ANA at 2 5 7 9 14 15` is recorded as 51.1 a.u.
